{"data": "Results collected from several papers", "note": "Numbered parts are unrelated; each lists some results of a single study. Changes are numbered by the printed parent chain."}
{"data": "Block 1", "target": "Ras GTPase-activating protein-binding protein 1, full length (G3BP1, Homo sapiens, UniProt Q13283)", "technique": "RNA Bind-n-Seq", "form": "RNA", "matrix": "in vitro", "concentration": "200 nM", "notes": "whole 134-nt RNA, ends assumed", "added": "150 mM KCl", "baseline": "input library", "reading": "higher = stronger binding", "sequence of UniProt Q13283 (whole entry, looked up)": "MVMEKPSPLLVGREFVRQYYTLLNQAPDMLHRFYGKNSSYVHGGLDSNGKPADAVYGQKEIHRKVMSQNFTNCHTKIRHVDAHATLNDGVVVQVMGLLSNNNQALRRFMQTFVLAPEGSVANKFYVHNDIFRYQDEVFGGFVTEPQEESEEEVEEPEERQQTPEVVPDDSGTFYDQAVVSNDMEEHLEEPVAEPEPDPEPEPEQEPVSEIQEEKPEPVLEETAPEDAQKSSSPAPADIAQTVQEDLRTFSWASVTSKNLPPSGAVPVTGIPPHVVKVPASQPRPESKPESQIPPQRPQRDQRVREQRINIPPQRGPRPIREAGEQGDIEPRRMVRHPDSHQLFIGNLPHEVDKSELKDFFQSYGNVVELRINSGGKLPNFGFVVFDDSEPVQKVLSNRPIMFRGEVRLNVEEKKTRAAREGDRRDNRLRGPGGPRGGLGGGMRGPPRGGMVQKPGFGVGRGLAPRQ"}
{"Sequence": "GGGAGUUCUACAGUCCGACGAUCUAACUUUAGAGGAGGAUCUGAUGGAUAUGGCAGUGGACGUGGAUUUGGGGAUGGCUAUAACGGGUAUGGAGGAGGACCUGGAGGUGGCAAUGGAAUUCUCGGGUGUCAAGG", "log2 enrichment": 0.375}
{"Sequence": "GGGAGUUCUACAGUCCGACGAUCAAGUCCUGUGCUACACAUCGUAUGUACCGAAUCGGUUUUUUUGGUGGUUUUUUUGGAAAGUAUUAUGUUACGCCGUUCGGAUCUGCACUUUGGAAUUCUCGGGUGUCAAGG", "log2 enrichment": -1.36}
{"Sequence": "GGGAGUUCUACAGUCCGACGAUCCCUGUGCUACACAUCGUAUGUACCGAAUCGGGUUUUUUUGGUUUUUUUGGGUUUUUUUGGAAAGUAUUAUGUUACGCCGUUCGGAUCUGCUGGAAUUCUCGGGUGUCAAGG", "log2 enrichment": -0.847}
{"Sequence": "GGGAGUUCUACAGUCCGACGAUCGUCCUGUGCUACACAUCGUAUGUACCGAAUCGGGAAAAAGGGUUUUUUUGGGAAAGGGAAAGUAUUAUGUUACGCCGUUCGGAUCUGCACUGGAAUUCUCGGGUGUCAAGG", "log2 enrichment": -0.474}
{"Sequence": "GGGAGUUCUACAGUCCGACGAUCCUGCGCGCGGAUUUCCCUCUCUGAGGAAGUUUAUCCUUGUGCCUUCUGGAGGAUUUCUCUCUAGCUCGACUCACUCUGGACUGACUCGCUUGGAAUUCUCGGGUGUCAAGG", "log2 enrichment": -0.685}
{"Sequence": "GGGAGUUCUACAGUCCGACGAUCUCCUGUGCUACACAUCGUAUGUACCGAAUCGGGUUUUUUUGGGUUUUUUUGGGUUUGGGAAAGUAUUAUGUUACGCCGUUCGGAUCUGCAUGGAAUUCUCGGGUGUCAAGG", "log2 enrichment": -0.335}
{"Sequence": "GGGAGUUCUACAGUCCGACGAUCCUGUGCUACACAUCGUAUGUACCGAAUCGGGUUUUUUUGGGUUUUUUUGGGUUUUUUUGGGGAAAGUAUUAUGUUACGCCGUUCGGAUCUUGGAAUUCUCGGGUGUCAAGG", "log2 enrichment": -0.948}
{"Sequence": "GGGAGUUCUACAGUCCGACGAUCUAACUUUAGAGGAGGAUCUGAUGGAUAUGGCAGUGGACGUGGAUUUGGUGAUGGCUAUAAUGGGUAUGGAGGAGGACCUGGAGGUGGCAAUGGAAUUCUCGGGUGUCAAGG", "log2 enrichment": 0.0921}
{"data": "Block 2", "target": "PABPC1L2, full length, GST fusion (mouse, UniProt A0ABA7IW68)", "technique": "RNAcompete", "form": "RNA", "matrix": "in vitro", "concentration": "20 nM", "notes": "7-mer, probes averaged, single round", "baseline": "mean of 7-mers", "reading": "higher = stronger binding", "Residues (chain)": "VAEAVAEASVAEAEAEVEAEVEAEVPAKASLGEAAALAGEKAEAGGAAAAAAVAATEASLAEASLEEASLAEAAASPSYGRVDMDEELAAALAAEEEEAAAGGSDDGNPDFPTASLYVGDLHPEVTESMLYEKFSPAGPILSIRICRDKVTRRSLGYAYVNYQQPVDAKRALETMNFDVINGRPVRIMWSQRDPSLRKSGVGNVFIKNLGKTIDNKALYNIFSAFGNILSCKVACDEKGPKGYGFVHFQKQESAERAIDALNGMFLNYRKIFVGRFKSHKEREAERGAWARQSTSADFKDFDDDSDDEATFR"}
{"Sequence": "UACCCGA", "7-mer Z-score": -0.153}
{"Sequence": "GCCGGAG", "7-mer Z-score": 0.0478}
{"Sequence": "UAUGGUU", "7-mer Z-score": -0.209}
{"Sequence": "GUAAAGA", "7-mer Z-score": 0.769}
{"Sequence": "ACAAAAU", "7-mer Z-score": 2.65}
{"Sequence": "CUAAGCA", "7-mer Z-score": -0.148}
{"Sequence": "GGGAUUA", "7-mer Z-score": 0.1}
{"Sequence": "AUCGAUG", "7-mer Z-score": 0.0515}
{"data": "Mixed results", "P1": "PafA, mature enzyme, eGFP fusion (Elizabethkingia meningoseptica, UniProt Q9KJX5); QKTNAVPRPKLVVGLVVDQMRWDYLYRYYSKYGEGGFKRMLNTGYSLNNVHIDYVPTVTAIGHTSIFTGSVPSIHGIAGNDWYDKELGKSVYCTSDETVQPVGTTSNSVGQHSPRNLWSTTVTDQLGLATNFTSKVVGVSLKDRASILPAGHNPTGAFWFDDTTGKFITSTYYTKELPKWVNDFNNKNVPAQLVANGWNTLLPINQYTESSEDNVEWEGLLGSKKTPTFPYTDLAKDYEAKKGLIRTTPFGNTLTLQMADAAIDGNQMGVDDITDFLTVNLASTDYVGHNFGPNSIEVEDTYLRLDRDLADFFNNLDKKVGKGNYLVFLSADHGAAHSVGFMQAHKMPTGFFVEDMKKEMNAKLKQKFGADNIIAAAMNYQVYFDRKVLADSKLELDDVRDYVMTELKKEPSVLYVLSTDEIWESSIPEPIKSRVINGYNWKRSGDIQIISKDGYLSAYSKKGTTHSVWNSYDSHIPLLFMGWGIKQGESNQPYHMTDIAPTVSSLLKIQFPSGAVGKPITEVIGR"}
{"Substance": "P1 G334A", "target or system": "inorganic phosphate, free oxyanion", "assay": "microfluidic competitive inhibition", "test system": "in vitro, cell-free expressed", "conditions": "not given, derived from inhibition constants, unchanged parent 615000 nM", "scale": "lower = stronger binding", "endpoint": "phosphate dissociation constant", "value": "595 µM"}
{"Substance": "GNAI3 (Homo sapiens, UniProt P08754)", "target or system": "GNG12 (Homo sapiens, UniProt Q9UBI6)", "assay": "cross-linking MS", "test system": "cells", "conditions": "added: BSPNO", "endpoint": "cross-linked residues", "value": "K92 to K4"}
{"note": "Repeated from above (block 2):"}
{"Sequence": "UAUGGUU", "7-mer Z-score": -0.209}
